Assay results pooled from the literature.
Each numbered part is a random draw from the data of one study; scales do not carry over between parts.
Sequence of UniProt Q9ZSY8 (whole entry, looked up): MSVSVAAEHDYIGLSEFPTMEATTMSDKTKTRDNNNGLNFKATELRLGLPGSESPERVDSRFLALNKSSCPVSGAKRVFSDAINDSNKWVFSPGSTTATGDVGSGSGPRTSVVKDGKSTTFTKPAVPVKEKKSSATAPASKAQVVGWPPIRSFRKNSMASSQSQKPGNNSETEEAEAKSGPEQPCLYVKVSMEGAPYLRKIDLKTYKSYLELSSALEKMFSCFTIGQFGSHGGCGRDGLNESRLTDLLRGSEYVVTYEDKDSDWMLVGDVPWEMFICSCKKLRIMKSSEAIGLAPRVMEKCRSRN
Sequence of UniProt P06239 (whole entry, looked up): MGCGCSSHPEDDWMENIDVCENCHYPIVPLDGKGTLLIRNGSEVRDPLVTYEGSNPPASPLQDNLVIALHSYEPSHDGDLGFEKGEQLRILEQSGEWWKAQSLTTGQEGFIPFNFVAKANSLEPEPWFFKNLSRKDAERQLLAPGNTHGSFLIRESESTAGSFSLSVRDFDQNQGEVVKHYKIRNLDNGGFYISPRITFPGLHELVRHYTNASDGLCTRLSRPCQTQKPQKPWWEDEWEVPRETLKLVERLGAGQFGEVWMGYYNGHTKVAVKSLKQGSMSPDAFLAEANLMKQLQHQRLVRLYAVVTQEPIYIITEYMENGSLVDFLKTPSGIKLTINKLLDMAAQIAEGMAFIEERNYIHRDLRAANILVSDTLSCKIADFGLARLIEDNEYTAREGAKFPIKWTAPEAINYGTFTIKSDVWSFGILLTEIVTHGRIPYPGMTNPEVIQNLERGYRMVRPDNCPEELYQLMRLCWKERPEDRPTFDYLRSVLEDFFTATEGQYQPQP
Sequence of UniProt Q16816 (whole entry, looked up): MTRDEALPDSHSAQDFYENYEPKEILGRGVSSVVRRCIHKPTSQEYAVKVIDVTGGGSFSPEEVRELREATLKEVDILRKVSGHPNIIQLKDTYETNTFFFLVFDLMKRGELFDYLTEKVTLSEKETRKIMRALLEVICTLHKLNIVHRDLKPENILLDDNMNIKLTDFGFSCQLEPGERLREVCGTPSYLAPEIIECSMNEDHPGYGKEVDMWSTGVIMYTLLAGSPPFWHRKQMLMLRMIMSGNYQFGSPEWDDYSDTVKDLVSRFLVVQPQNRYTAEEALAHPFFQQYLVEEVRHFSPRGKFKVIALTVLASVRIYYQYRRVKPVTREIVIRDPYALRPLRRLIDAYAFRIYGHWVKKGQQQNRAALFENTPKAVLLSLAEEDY
Sequence of UniProt Q38832 (whole entry, looked up): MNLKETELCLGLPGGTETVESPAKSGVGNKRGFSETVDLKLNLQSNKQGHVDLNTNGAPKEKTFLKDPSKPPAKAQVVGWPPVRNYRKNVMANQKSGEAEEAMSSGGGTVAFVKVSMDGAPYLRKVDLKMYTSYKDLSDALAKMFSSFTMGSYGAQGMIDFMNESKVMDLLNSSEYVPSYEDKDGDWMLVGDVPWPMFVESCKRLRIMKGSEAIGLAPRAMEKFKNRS
Sequence of UniProt Q06187 (whole entry, looked up): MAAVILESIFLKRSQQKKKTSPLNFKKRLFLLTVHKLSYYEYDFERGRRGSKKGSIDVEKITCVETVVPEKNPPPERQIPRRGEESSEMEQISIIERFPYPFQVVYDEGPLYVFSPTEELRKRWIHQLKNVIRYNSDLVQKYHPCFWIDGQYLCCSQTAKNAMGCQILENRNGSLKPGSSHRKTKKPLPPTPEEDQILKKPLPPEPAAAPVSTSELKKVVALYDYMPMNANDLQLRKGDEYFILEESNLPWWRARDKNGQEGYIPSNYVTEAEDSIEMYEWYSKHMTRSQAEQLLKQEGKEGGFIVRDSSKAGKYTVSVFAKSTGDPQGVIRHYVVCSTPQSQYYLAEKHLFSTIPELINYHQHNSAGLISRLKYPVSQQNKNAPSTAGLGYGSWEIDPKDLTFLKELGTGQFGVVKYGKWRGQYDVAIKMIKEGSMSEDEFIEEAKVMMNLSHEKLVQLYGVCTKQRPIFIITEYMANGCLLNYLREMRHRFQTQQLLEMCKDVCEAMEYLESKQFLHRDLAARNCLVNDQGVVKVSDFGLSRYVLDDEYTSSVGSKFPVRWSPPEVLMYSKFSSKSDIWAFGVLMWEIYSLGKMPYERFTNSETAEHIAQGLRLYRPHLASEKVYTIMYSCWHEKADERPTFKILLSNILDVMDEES
Sequence of UniProt O75582 (whole entry, looked up): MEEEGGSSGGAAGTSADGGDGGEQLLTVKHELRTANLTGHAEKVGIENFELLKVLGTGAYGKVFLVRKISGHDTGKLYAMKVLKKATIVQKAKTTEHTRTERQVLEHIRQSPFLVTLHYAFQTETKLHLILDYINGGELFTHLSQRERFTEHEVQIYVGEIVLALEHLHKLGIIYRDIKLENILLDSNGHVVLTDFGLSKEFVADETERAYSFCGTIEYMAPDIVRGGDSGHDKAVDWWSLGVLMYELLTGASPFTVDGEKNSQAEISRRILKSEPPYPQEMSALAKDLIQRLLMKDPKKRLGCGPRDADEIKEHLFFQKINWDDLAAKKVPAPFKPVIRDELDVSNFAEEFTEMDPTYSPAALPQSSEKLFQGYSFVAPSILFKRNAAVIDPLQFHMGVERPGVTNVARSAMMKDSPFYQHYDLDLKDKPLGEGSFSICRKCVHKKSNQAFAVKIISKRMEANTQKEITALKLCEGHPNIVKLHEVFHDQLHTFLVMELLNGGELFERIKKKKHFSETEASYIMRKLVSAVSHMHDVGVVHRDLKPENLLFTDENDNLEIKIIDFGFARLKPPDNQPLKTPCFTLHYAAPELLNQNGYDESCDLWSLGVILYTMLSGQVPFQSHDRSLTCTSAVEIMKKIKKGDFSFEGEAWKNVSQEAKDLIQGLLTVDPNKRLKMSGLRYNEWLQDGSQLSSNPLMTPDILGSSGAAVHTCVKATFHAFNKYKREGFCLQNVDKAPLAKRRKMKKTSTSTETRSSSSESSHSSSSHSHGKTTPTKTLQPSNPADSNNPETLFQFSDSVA
Sequence of UniProt Q9UEE5 (whole entry, looked up): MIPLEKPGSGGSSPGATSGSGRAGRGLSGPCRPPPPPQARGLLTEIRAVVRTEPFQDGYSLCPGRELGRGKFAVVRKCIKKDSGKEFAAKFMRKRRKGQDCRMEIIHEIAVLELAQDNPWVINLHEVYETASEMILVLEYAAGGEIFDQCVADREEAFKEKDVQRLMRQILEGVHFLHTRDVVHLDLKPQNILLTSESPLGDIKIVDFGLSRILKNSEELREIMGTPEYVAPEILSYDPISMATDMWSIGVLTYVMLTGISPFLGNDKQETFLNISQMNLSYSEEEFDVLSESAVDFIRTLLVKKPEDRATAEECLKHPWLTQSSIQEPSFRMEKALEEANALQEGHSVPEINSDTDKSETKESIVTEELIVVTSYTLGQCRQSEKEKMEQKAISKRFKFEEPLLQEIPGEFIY
Sequence of UniProt Q9C7I9 (whole entry, looked up): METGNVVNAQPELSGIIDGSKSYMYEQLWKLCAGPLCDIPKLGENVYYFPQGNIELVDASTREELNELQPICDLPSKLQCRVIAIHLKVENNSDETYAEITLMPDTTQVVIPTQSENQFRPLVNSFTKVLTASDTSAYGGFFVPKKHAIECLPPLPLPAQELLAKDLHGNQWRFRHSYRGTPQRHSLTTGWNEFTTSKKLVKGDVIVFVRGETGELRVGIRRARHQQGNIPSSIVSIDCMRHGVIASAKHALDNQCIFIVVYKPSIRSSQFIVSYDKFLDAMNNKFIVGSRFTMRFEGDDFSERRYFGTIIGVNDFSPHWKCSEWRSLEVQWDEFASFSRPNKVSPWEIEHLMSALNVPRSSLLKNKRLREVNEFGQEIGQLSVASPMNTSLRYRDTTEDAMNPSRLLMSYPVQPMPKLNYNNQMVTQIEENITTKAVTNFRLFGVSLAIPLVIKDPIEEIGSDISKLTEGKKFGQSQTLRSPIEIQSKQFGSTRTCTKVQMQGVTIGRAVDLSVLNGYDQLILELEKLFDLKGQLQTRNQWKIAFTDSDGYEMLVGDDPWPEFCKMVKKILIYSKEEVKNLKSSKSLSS
Sequence of UniProt P30530 (whole entry, looked up): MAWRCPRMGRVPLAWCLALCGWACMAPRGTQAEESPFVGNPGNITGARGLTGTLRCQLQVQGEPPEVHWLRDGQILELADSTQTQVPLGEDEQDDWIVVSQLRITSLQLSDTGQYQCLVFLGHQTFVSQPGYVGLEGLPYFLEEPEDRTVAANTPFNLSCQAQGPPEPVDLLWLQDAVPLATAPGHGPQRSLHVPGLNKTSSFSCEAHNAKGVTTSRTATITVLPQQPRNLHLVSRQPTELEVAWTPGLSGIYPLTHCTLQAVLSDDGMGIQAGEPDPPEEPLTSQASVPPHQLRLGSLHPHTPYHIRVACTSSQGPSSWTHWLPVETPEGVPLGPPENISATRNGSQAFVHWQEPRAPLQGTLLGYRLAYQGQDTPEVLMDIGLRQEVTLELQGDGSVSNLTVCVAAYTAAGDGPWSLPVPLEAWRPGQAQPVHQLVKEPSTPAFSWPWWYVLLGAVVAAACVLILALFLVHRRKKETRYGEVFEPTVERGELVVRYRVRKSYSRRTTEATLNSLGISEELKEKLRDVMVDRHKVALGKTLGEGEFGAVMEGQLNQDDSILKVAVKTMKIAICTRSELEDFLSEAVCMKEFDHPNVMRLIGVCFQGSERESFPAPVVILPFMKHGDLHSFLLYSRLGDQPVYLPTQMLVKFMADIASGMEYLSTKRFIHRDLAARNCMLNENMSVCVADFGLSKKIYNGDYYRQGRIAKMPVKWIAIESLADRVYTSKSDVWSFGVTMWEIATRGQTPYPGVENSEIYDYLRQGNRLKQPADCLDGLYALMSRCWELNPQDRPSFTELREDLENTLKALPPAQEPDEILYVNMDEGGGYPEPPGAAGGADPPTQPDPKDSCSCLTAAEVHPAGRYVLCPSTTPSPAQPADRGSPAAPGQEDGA

Sample 1 — effect on: enzyme activity; mode: inhibitor; tested at: 0.5 µM; relative to: control; endpoint: remaining activity
Compound: Cc1nc(Nc2ncc(C(=O)Nc3c(C)cccc3Cl)s2)cc(N2CCN(CCO)CC2)n1
target = HIPK2 (Homo sapiens, UniProt Q9H2X6); result = 97.1%
target = RPS6KA5 (Homo sapiens, UniProt O75582); result = 101%
target = Cyclin-dependent kinase 4, with cyclin D3 (CDK4, Homo sapiens, UniProt P11802); result = 99.1%
target = STK17A (Homo sapiens, UniProt Q9UEE5); result = 107%
target = WNK3 (Homo sapiens, UniProt Q9BYP7); result = 88.1%
target = Cyclin-dependent kinase 1, with cyclin B (CDK1, Homo sapiens, UniProt P06493); result = 93.9%
target = AXL (Homo sapiens, UniProt P30530); result = 61.4%
target = SRMS (Homo sapiens, UniProt Q9H3Y6); result = 17%
target = TSSK2 (Homo sapiens, UniProt Q96PF2); result = 93.9%
target = BLK (Homo sapiens, UniProt P51451); result = 3.04%
target = STK16 (Homo sapiens, UniProt O75716); result = 96.9%
target = PHKG1 (Homo sapiens, UniProt Q16816); result = 94.3%

Sample 2 — method: protein-binding microarray; molecule type: double-stranded DNA, one strand shown; medium: in vitro; tested at: not given; reading: higher = stronger binding; endpoint: E-score
Target: Protein max, full length (MAX, Homo sapiens, UniProt P61244-2, residues 1-151)
Setting: k-mer, scored over probes, only values ≥0.25
Oligonucleotide = ACACACGT; result = 0.421
Oligonucleotide = GCGTGGTA; result = 0.432
Oligonucleotide = CATGCATC; result = 0.292
Oligonucleotide = CACACGCC; result = 0.357
Oligonucleotide = CGCGCACA; result = 0.303
Oligonucleotide = ATGCGTAC; result = 0.319
Oligonucleotide = CCAAGCAC; result = 0.256
Oligonucleotide = CGTGAATC; result = 0.266

Sample 3 — effect on: cell-free assay; method: competition with immobilised ligand; tested at: 1 µM; endpoint: remaining binding
Structure (SMILES): CCCCN(CCCC)C(=O)CN1C[C@H](c2cc(OC)c3c(c2)OCO3)[C@@H](C(=O)O)[C@@H]1CC(C)(C)CCC
target = MAP2K7 (Homo sapiens, UniProt O14733); result = 90.8%
target = KIT (Homo sapiens, UniProt P10721, A829P); result = 80.9%
target = MAP3K13 (Homo sapiens, UniProt O43283); result = 89.3%
target = LCK (Homo sapiens, UniProt P06239); result = 100%
target = MAPK1 (Homo sapiens, UniProt P28482); result = 100%
target = FRK (Homo sapiens, UniProt P42685); result = 100%
target = EIF2AK2 (Homo sapiens, UniProt P19525); result = 100%
target = BTK (Homo sapiens, UniProt Q06187); result = 61.3%

Sample 4 — Molecule: B1 (IAA10); method: two-hybrid; relative to: out of 4 tests; reading: higher = firmer interaction; endpoint: positive tests
B1: IAA10 (Arabidopsis thaliana, UniProt Q38828); chain MNGLQEVCSSSGSVMIGLPAEEDENAAHSSEDSSCPDESVSETELDLALGLSIGRRKVRSSLSSSSSSLTRESGTKRSADSSPAAASNATRQVAVGWPPLRTYRINSLVNQAKSLATEGGLSSGIQKETTKSVVVAAKNDDACFIKSSRTSMLVKVTMDGVIIGRKVDLNALDSYAALEKTLDLMFFQIPSPVTRSNTQGYKTIKETCTSKLLDGSSEYIITYQDKDGDWMLVGDVPWQMFLGSVTRLRIMKTSIGAGVGK
partner = IAA27 (Arabidopsis thaliana, UniProt Q9ZSY8); result = 3
partner = ARF20 484-590 (Arabidopsis thaliana, UniProt Q9C7I9); result = 0
partner = ARF22 498-598 (Arabidopsis thaliana, UniProt Q9C8N7); result = 2
partner = IAA14 (Arabidopsis thaliana, UniProt Q38832); result = 0

Excerpt of the above (sample 2):
Oligonucleotide = ACACACGT; result = 0.421
Oligonucleotide = GCGTGGTA; result = 0.432
